Earlier results, collected from citations in different studies.
Each numbered part shows a few of the values that one paper quotes. “And” joins repeats or separate records; there may be more than shown.

Set 1
SMILES: CC(=O)Nc1c(C(C)=O)c(=O)n(C)c2nc(-c3ccc(Cl)cc3Cl)c(-c3ccc(Cl)cc3)cc12
Setting: off-target panel
Measurement: IC50
target = MAPK14; result = 3.68 µM
target = MAPK3; result = 8.61 µM
target = ALOX5; result = 1.34 µM
target = EGFR; result = 3.26 µM

Set 2
Organism: Cryptosporidium parvum
Method: high-throughput screen
Concentration: concentration not given
Measurement: activity
SMILES = CC1(C)O[C@@H]2C[C@H]3[C@@H]4CCC5=CC(=O)C=C[C@]5(C)[C@@]4(F)[C@@H](O)C[C@]3(C)[C@]2(C(=O)CO)O1; result = inactive
SMILES = NS(=O)(=O)c1cc2c(cc1Cl)N=CNS2(=O)=O; result = inactive
SMILES = CCN1CCC[C@H]1CNC(=O)c1cc(S(N)(=O)=O)ccc1OC; result = inactive
SMILES = CCOC(=O)[C@@]1(CCCCCCOc2ccc(Cl)cc2)CO1; result = inactive
SMILES = Cc1nc2ccc(CN(C)c3ccc(C(=O)N[C@@H](CCC(=O)O)C(=O)O)s3)cc2c(=O)[nH]1; result = inactive

Other studies, line by line
Structure (SMILES) = N/C(CC(O)c1cc2c(F)cc(F)cc2c2cc(C(F)(F)F)ccc12)=N\c1ccc(F)cc1 (stereo not drawn); tested on = Plasmodium falciparum; test = parasite growth; test system = K1; measurement = IC50; result = 0.003 µM
Structure (SMILES) = N[C@@H]1C[C@@]1(F)c1ccccc1; tested on = tyramine oxidase (Arthrobacter sp.); test = enzyme activity, inhibitor; conditions = pH 7.2, literature data, with: benzylamine 0.6 mM substrate; measurement = IC50; result = 3.6 µM
Structure (SMILES) = Cl.N=C(CC(O)c1cc2c(F)cc(F)cc2c2cc(C(F)(F)F)ccc12)Nc1ccc(F)c(F)c1 (stereo not drawn); tested on = Plasmodium berghei; test system = ANKA, mouse; conditions = oral, 50 mg/kg for 4 doses, day 4; how to read = relative to: vehicle; measurement = parasitaemia reduction; result = 99.7% and > 99%

Repeated from above (set 2):
SMILES = CCN1CCC[C@H]1CNC(=O)c1cc(S(N)(=O)=O)ccc1OC; result = inactive
